Measurements collected from several papers.
± marks the error that the study gave.

CN[C@](C)(C[18F])C(=O)O
tissue uptake (SCID mouse A549 xenograft, brain; 30 min, post injection): 0.3 ± 0.03 %ID/g

C[S]1CC[S]2CC[P](CO)(CO)[99Tc+]12.[C-]#[O+].[C-]#[O+].[C-]#[O+]
tissue uptake (female CF-1 mouse, carcass; intravenous, 4 h): 2.9 %ID

Cn1cc(-c2cccc(CN3CCC4(CC3)COc3c4ccc4c3CN([C@H]3CCC(=O)NC3=O)C4=O)c2)cn1
tissue concentration (mouse Crbn I391V, thymus; oral, 100 mg/kg, 6 h): 2850 ng/g

N=C(N)NCc1ccc(C(=O)NCCCC[C@H](NC(=O)N[C@@H](CCC(=O)O)C(=O)O)C(=O)O)cc1[211At]
tissue uptake (SCID mouse, PC-3 xenografts, muscle; 1 h): 0.56 ± 0.05 %ID/g

CCCCCCCC(=O)NCCCC[C@H](NC(=O)[C@H](Cc1ccccc1)NC(=O)[C@@H](CCCNC(=N)N)NC(=O)[C@@H](N)Cc1ccc(O)cc1)C(N)=O
tissue concentration (CD-1 mouse, male, brain; intravenous, 3 mg/kg, 180 min): 199 ± 8 ng/g

N=C(N)NCc1ccc(C(=O)NCCCC[C@H](NC(=O)N[C@@H](CCC(=O)O)C(=O)O)C(=O)O)cc1[131I]
tissue uptake (SCID mouse, PC-3 xenografts, muscle; 14 h): 0.03 ± 0.02 %ID/g

C=Cc1cc(O)cc2nc(-c3ccc(O)c([76Br])c3)oc12
tissue uptake (female C57BL/6 mouse, ovaries; 1 h, high dose): 0.19 ± 0.05 %ID/g

COC(=O)C[C@](O)(CCCC(C)(C)OC(C)=O)C(=O)O[C@@H]1C(OC)=C[C@]23CCCN2CCc2cc4c(cc2[C@H]13)OCO4
tissue concentration (CD1 mouse, kidney; oral, 1 mg/kg, 0.5 h): 138 ng/mL

N=C(N)NCc1ccc(C(=O)NCCCC[C@H](NC(=O)CCCCCCC(=O)NCCCC[C@H](NC(=O)N[C@@H](CCC(=O)O)C(=O)O)C(=O)O)C(=O)O)cc1[211At]
tissue uptake (SCID mouse, PC-3 xenografts, blood; 21 h): 0.48 ± 0.13 %ID/g

Excerpt of the above:
COC(=O)C[C@](O)(CCCC(C)(C)OC(C)=O)C(=O)O[C@@H]1C(OC)=C[C@]23CCCN2CCc2cc4c(cc2[C@H]13)OCO4
tissue concentration (CD1 mouse, kidney; oral, 1 mg/kg, 0.5 h): 138 ng/mL
